Measured values from different studies.
Every numbered part comes from another study and shows a few of its results, in no order. Substitutions count along the parent as printed.

Set 1 — method: protein-binding microarray; molecule type: double-stranded DNA, one strand shown; sample: in vitro; concentration: 0.8 µM; setting: whole 60-bp probe, no competitor; direction: higher = stronger binding; endpoint: fluorescence intensity; all sequences stand within: … GTCTTGATTCGCTTGACGCTGCTG
Target: Centromere-binding protein 1, full length, N-terminal tag (CBF1, Saccharomyces cerevisiae, UniProt P17106, residues 1-351)
Sequence of UniProt P17106 (whole entry, looked up): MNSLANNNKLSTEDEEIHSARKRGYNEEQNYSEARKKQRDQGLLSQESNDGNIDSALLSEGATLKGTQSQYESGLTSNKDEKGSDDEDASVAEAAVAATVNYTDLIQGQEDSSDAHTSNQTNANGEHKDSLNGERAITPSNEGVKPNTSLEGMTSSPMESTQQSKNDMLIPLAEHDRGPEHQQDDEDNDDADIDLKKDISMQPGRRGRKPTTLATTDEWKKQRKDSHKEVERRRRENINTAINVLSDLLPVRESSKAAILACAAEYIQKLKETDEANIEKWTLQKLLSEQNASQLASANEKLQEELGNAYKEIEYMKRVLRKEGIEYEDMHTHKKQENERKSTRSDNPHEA
CTATTCCTCAGTCTGTACGTGTTGTTGTGGCTGTTC: 547 a.u.
CCTAACTACTATAGTCACGTGACATAGCTTCGTACA: 55000 a.u.
GAATGGTCCCATGACCATGTGCCGAAATCTTTTTAG: 1990 a.u.
CTAATCCATAAAAGAAACGTGATGGTCGTTCCCTTC: 999 a.u.
CTACATACGGCTGCTCTCCTGATTGCGGTGGGTTTC: 520 a.u.
CTACCATGCTGTTTCCATCACGTGCATGTCACGTTC: 11000 a.u.
CCTAACTACTATAATCGTGTCACATAGCTTCGTACA: 559 a.u.
GAATACGAAGCTTATCACATGCACCATTATCTGTAG: 1760 a.u.

Set 2 — method: protein-binding microarray; molecule type: double-stranded DNA, one strand shown; sample: in vitro; concentration: not given; direction: higher = stronger binding; endpoint: E-score
Target: Max-binding protein MNT, bHLH-zipper, MAX partner unstated (MNT, Homo sapiens, UniProt Q99583, residues 220-300)
Setting: k-mer, scored over probes, only values ≥0.25
Residues (chain): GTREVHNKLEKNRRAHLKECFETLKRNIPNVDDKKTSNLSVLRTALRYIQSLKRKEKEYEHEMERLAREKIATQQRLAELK
ACATGGCA: 0.376
AGACACGA: 0.288
GGCACGCC: 0.319
ACACGAGG: 0.469
CCGTGTGC: 0.251
CATGGGAC: 0.283
GCATGCAC: 0.424
CTCACCCC: 0.261

Single results of other studies
P1: PafA, mature enzyme, eGFP fusion (Elizabethkingia meningoseptica, UniProt Q9KJX5); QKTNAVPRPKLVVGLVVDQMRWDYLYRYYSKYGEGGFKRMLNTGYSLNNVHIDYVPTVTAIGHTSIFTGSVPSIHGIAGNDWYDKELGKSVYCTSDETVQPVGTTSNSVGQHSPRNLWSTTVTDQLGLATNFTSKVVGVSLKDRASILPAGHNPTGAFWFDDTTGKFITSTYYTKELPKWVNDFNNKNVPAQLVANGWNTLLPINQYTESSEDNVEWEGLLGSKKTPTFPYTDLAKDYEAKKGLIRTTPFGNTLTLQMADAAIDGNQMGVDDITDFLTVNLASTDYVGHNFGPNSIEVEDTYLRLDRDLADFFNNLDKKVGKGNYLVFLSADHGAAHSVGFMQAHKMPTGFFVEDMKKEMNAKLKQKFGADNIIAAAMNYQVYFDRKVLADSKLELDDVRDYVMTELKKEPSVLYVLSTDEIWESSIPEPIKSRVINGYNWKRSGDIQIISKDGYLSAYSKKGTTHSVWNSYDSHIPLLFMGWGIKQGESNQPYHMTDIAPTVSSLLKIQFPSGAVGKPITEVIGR
COX4I1 (Homo sapiens, UniProt P13073)  cross-linked residues (TEX15 (Homo sapiens, UniProt Q9BXT5); cross-linking MS; cell fractions; added: DSSO): K67 to K1851
P1 K318V  oxyanion analog dissociation constant (vanadate, free oxyanion; microfluidic competitive inhibition; in vitro, cell-free expressed; not given, derived from inhibition constants, unchanged parent 676 nM; lower = stronger binding): 784 nM
NAP1L1 (Homo sapiens, UniProt P55209)  cross-linked residues (NAP1L4 (Homo sapiens, UniProt Q99733); cross-linking MS; cell fractions; added: DSSO): K87 to K105

Repeated from above (set 2):
CATGGGAC: 0.283
GCATGCAC: 0.424
CTCACCCC: 0.261
